Measurements of several laboratories.
Parts stem from different laboratories: compare values within a part only. Substitutions count along the parent as printed.

Sample 1 — method: RNA Bind-n-Seq; form: RNA; sample: in vitro; tested at: 365 nM; reference: no-protein control; reading: higher = stronger binding
Target: RNA binding protein fox-1 homolog 2, RRM domain, GST-SBP tag (RBFOX2, Homo sapiens, UniProt O43251-10, residues 100-194)
Notes: natural RNA segment, single round, ends assumed
Shared flanks, not repeated: GGGAGUUCUACAGUCCGACGAUC … UGGAAUUCUCGGGUGCCAA
Target sequence (chain): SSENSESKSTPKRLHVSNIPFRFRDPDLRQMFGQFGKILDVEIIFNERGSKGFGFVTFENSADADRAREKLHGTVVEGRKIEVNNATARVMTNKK
| Oligonucleotide | RBNS enrichment (R) |
| --- | --- |
| UUAGAAGGAGAGUCCUAACAUGAAAUGGUCAUCUCUUAGAUUUGGGAGGAAGGAAGCCACUGUUAACUGUGUAGUGUUACAGCAUAUUGCACAAAAGGUUUUGGUUUUGG | 0.339 |
| UUGGAUGUGUUUUCUCACCAAGAUGAGCAAAGAAAGGUUUGCACAGAGGAGUGUGAAUGUGUGUUUGUUGCUGGCUGAAUGGCAAUAGAUGUCUAAGGUGGAUUCAGUGU | 1.21 |
| CCACACUUUCAAAGAGAAACCCCUCCAGAACUCCCACCCUGACAGCCCAACACCACCUUCCUCCUGGCUUCCAGGGGGCAGCCCAGUGGAAUGGAAAGAAUGUGGGAUUU | 0.415 |
| UGGACAGACCUGGUGUCACCAGUUUUUCCUAGCAUCAGUCCGAACCAUGCGCCCGCCCUGCCCCAACUGUGUGCUGGUCCUGCUGUGGCCGAGGGGACCGGGUGUGUUUG | 0.717 |
| ACUGUAGACUCCGGUGUGACCCACCACUGGGGAGUUCACACCUAGAAAGAGAUGGAACUAAACUCUACUAUCAGCUGCUUCAAAAACCUUUUGUCUACGGCCUGGGAAGA | 1 |
| GAAUGUAAUGUAAGAAAAAUGUUCAUAAAUAUGGACAAAAAUGGUCCAGAUUACUUAGUUUAAAUAGCUACAUUUUCUUCUGUAUCUAAAACUUCGUUAGAAGAAAGUAA | 0.609 |
| GAAGUGAUCAGUAUUAAGUGGGUGAUGGCUCUUUCAUCUUCCUUAUCCCUAAAGAUACUUCCAACAUAUUGUUAGAGUAAGUAUUAAAAGAAAAAGUAGGUUUGCUGAAA | 0.386 |
| UGGGCCUGCGAGACCCAAGGCUCACUGCAGCGCGCUCCUGACCCCUCCCUGCAGGGGCUACGUUAGCAGCCCAGCACAUAGCUUGCCUAAUGGCUUUCACUUUCUCUUUU | 0.636 |
| GGGUGCCUCCUCCCCAGGUGGAGGUGCCAGGAAGCUCCCUCCCUCACUGUGGGGCAUUUCACCAUUCAAACAGGUCGAGCUGUGCUCGGGUGCUGCCAGCUGCUCCCAAU | 0.364 |
| GUCAGACUAAUUUCCUUCUUUCCUCGCACUUCUCCCCACUCGUCAUCUUUUAACUAGUGUUUCACAAGGAUCCUCUGAAACCCUCUCUGUGCCCCAAGUACAGAUGCCAU | 0.608 |
| AACCUGUGUUGUCCUAGACCCUGUCGGGGCAGUCAGGGGACACUAGAGAUUUGAUCUCAUGCGAGUCAUCAAUAGGACAAAAAAGUUGUGGUUUGGGGAGGUCUGUUUGU | 0.797 |

Sample 2 — method: DHFR PCA, deep sequencing; sample: yeast; added: (+)-ABA 58 µM; reference: wild-type fitted maximum; reading: higher = stronger binding
Target: ABI1, truncated, D143A, DHFR fusion (Arabidopsis thaliana)
Notes: methotrexate growth selection, single substitutions
Parent: PYL1, truncated, DHFR fusion (Arabidopsis thaliana); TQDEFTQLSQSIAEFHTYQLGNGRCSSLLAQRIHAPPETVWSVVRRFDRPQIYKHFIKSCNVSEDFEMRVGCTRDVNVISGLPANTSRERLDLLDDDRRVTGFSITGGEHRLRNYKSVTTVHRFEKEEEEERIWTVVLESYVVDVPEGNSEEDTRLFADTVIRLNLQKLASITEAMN; partner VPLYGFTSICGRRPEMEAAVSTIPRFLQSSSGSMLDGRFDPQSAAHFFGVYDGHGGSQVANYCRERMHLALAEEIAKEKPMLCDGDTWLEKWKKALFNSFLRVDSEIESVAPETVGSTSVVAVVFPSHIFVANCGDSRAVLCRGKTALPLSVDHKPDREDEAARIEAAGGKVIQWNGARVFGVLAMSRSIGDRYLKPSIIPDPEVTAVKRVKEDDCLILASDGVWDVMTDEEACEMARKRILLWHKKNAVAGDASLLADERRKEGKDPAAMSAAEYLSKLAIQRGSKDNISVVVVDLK
| Substitution | relative binding score |
| --- | --- |
| V78A | 42.4% |
| Y141V | -4.64% |
| D65P | 92.4% |
| S63E | 84.6% |
| N165E | 0.957% |
| E125K | 93.3% |

Sample 3 — target: CCNF, cyclin fold, Cln2 fusion (human); method: yeast growth competition, sequencing; sample: yeast; notes: strong parent motif; reference: not given; reading: higher = stronger binding
Parent: SGO1 docking peptide (human); PLAKRALKYTDEK
| Substitution | normalised enrichment score |
| --- | --- |
| K8A | 1.47 |
| K13A | 4.57 |
| E12A | 2.89 |
| L7A | 0.392 |
| R5A | 0.126 |

Single results of other studies
| Substance | target | assay | test system | setting | scale | quantity | result |
| --- | --- | --- | --- | --- | --- | --- | --- |
| PhoQ, residues 284 288 289 292 302 303 GASLAW | PhoP, residues 12 14 15 18 19 SEGLL (Escherichia coli, UniProt P23836) | Sort-seq, measured: YFP reporter | E. coli | PhoQ-PhoP variant library, added: 10 µM Mg2+ | reference: high Mg2+ state, higher = stronger signaling | fold induction | 4.23 |
